Measurements from different studies.
Each numbered part is a random draw from the data of one study; scales do not carry over between parts.

Sample 1
Target: Interferon regulatory factor 5, full length, phosphomimetic (IRF5, Homo sapiens, UniProt Q13568-2, residues 1-514, K96S/S451D/S453D/S456D/S462D)
Technique: protein-binding microarray
Form: double-stranded DNA, one strand shown
Matrix: in vitro
Tested at: 250 nM
Notes: 60-bp whole probe
Added: salmon DNA 0.4 mg/ml
Baseline: random background probes
Reading: higher = stronger binding
All sequences stand within: GCCTAGCAC … GTCTTGATTCGCTTGACGCTGCTG
Sequence	log fluorescence
GGAAATTCTCATTTCCAATTGTGCTAG	0.68 z-score
GACAGACTGCTTATCCTGACGTGCTAG	-0.404 z-score
TCAGGTTTCGGGTATCGGTTAGTGCTA	9.29 z-score
TCATTTCTCTTTCACTAACTGTGCTAG	6.64 z-score
GACGGTATCGGGTATCTGGACGTGCTA	2.64 z-score
GGTTGTTTCTAATATTCTGCTGTGCTA	1.21 z-score
TTAGATTACAGTTCCGATTAGTGCTAG	0.973 z-score
TTATGTATCGGTTTCGGTTAGTGCTAG	11.5 z-score
TTAGGTTTCAGACTGGGTTAGTGCTAG	0.685 z-score
ATATATATATTGTTAGTGTAGTGCTAG	0.826 z-score
TAACTTTCCAATTGTCCTTTCGTGCTA	1.98 z-score
GACGGTCCCCTTCTCCTGACGTGCTAG	-0.308 z-score
TTAGATATCGGGCCTGGATTAGTGCTA	0.759 z-score
TCAGGACTGGGGACTGGGTTAGTGCTA	-0.539 z-score

Sample 2
Target: Centromere-binding protein 1, full length, His-tagged (CBF1, Saccharomyces cerevisiae, UniProt P17106, residues 1-351)
Chain of UniProt P17106 (whole entry, looked up): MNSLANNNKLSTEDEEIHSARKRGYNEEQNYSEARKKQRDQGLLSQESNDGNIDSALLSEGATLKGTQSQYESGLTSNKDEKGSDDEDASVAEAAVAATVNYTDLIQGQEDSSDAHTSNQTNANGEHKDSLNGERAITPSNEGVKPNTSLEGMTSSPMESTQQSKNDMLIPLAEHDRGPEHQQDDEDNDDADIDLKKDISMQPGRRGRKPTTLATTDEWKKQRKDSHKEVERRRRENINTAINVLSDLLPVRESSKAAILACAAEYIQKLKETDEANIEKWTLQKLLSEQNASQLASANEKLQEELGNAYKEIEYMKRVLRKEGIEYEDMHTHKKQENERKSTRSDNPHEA
Technique: competition protein-binding microarray
Form: double-stranded DNA, one strand shown
Matrix: in vitro
Tested at: 2 µM
Notes: whole 60-bp probe, lowest competitor level
Added: Pho4 competitor, 0.05 µM
Reading: higher = stronger binding
Sequence	fluorescence intensity [a.u.]
CTTCTGTAAATTTGTGGGGTGGGTGGACGCGCCCCGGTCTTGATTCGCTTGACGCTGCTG	96
GTCTTGTCTCATTGATTGGTGGGTGTCCCCACTTCAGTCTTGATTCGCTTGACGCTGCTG	84.4
AGTCGAGCCGCCCGTCACGTGCGGAGCCGCCCTGCTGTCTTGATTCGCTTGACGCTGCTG	2440
GATACGCTCCTTGGCCTCGTGGTGATGCGCCAAAACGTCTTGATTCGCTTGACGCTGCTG	68.6
CTTCTGTAAATTTTTCACGTGGTCTGACGCGCCCCGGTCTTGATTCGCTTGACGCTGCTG	1230
CTAACGAAGGTTTGCTCCGTGGGTGACAAGCCAAGTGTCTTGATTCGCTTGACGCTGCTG	72.3
GTCTTGTCTCATTTTCACGTGAGATTCCCCACTTCAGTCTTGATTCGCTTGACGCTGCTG	689
CTTCTGTAAATTTGTCACTACACTTGACGCGCCCCGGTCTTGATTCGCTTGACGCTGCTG	88.9
CAAACTCAGTACCGTCAGCTGACAACTGCACTTCAAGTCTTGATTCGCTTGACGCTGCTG	417
CTGCTTGGCGTATGGGGCGTGCAAATAACTGTTCATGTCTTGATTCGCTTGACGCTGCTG	122
CTTCTGTAAATTTGCATTGTGGGTGGACGCGCCCCGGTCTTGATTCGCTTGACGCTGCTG	73.9
CCTCTTTTTCACCCGATTATTTTCATTTATTAGTAAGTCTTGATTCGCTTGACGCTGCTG	77
ATTGTTTACACCAATCGCGTGGGTAAAGGGGCTGGAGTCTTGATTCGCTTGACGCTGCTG	75.7

Sample 3
Target: RNA binding protein fox-1 homolog 2, RRM domain, GST-SBP tag (RBFOX2, Homo sapiens, UniProt O43251-10, residues 100-194)
Technique: RNA Bind-n-Seq
Form: RNA
Matrix: in vitro
Tested at: 365 nM
Notes: natural RNA segment, single round, ends assumed
Baseline: no-protein control
Reading: higher = stronger binding
Target sequence (chain): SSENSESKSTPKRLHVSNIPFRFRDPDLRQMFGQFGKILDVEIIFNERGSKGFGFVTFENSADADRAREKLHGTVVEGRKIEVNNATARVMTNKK
Sequence	RBNS enrichment (R)
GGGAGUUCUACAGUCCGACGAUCUGGGUGUCUGAGGAUGGCAGCACUGUCGCUGACAUUGCCACUUCUCCAAAGAAAGCCAUGCUAAGACUGGGACCAGCCCCUCGUUAGCAUGUCUCCCUGCCACCUGUCACUGGAAUUCUCGGGUGCCAA	0.34
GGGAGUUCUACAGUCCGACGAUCCUUGUAAAGCGGUGAUACAACUUGUCAAAUAUUUAAUAAAGAAUUACGGAAGCUGGAACAUUUCCUACAUAAGUAUCAUGGGUUGUCUGGCUUAAAGCUUCUUCAGGAAUUGGAAUUCUCGGGUGCCAA	0.533
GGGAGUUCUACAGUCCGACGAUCUUAAAAACAAAACAAAACUGGGAUCAGAUGGCAUCCUAGUUUUGGUACCGGGGCAUUGCCAGUCACCUGAGCUAAGGAAGCAGGCAGGCUGGUGGUUCUUCUGUUCUCAAUGGAAUUCUCGGGUGCCAA	0.67
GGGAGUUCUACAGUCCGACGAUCGAUUUUUUUUAAACUAAAGCUAUAUAAAGCUUGUGGAUUAAACAGAAUAAAUUUCUAAAUUUAAAAAUUUUGCCACUCUUACUUAGUAGUGCUUAUGUAAACCUUUUGGUUGGAAUUCUCGGGUGCCAA	0.826
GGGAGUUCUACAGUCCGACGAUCAACCAUUAAAACCAACAUGGAAUGCAGGGACUUCGCCUUAUAAGAUUUCCAGUUUUAAAACUGCCCCUCAGAUACAAUUUCAAAGUAGGGUACACAUUAGAGUGUCUUUGUGGAAUUCUCGGGUGCCAA	0.391
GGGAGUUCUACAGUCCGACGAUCAAAAUUACAAAUUAAAUUGUUAAUUUUUAUCAAUGUGAUUGUAAUUAAAAAUAUUUUGAUUUAAAUAACAAAAAUAAUACCAGAUUUUAAGCCGUGGAAAAUGUUCUUGAUGGAAUUCUCGGGUGCCAA	1.71
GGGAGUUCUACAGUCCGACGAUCUGUUAUAACUUAGUGACUUUUGAUUUCUAGAGGUGUAAAUGAGGAUGUAAAAAUUGAUAUAGUUGUGAUACAGAGUAUAUUUCCCUUCAGAUAACAUACCACAACACAAUUGGAAUUCUCGGGUGCCAA	0.593
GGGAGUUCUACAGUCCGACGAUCAUGGUGAUACAUUCUAGCCUUAAGACAUUUGAAUUGCCGGUUGUUGAGGUGAAUUUUGUUUGUCAUACAUGGAACCAUUUUAGUCCCAUUUGACUCACUUCAGACCAUCUUGGAAUUCUCGGGUGCCAA	0.493

Sample 4
Target: Ras GTPase-activating protein-binding protein 1, full length (G3BP1, Homo sapiens, UniProt Q13283)
Chain of UniProt Q13283 (whole entry, looked up): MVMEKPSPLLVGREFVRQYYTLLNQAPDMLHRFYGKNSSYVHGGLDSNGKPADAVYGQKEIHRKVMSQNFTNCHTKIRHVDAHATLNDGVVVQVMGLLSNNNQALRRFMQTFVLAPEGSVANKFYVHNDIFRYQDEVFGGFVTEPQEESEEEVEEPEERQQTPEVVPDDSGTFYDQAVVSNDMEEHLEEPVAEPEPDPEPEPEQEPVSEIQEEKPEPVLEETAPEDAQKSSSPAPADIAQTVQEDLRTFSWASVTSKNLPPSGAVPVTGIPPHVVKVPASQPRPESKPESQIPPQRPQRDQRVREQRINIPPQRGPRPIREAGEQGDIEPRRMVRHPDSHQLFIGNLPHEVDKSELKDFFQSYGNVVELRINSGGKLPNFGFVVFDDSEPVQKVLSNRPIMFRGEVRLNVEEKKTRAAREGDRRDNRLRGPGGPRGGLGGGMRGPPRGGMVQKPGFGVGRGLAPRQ
Technique: RNA Bind-n-Seq
Form: RNA
Matrix: in vitro
Tested at: 200 nM
Notes: whole 134-nt RNA, ends assumed
Added: 150 mM KCl
Baseline: input library
Reading: higher = stronger binding
Sequence	log2 enrichment
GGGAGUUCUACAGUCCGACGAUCCCUGUGCUACACAUCGUAUGUACCGAAUCGGGGAAAAAGGGGAAAGGGGAAAAAAAGGGGAAAGUAUUAUGUUACGCCGUUCGGAUCUGCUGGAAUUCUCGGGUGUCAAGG	0.253
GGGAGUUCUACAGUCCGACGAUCCAAGUCCUGUGCUACACAUCGUAUGUACCGAAUCGGAGGAAAAAGGAAAAAAAGGAAAGUAUUAUGUUACGCCGUUCGGAUCUGCACUUCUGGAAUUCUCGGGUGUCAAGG	-0.755
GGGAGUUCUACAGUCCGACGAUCGCAGGAAGUGAAAACAAAUGGAAAUGCUUCGGAUAGUGGCAGGGGUGGGGGUUGCUAAGGAAAGGGUGGGAUGGGAGUGGGUAAAGAGUUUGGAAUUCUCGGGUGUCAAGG	0.576
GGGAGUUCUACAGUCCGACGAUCCUCAAGUCCUGUGCUACACAUCGUAUGUACCGAAUCGGGCCGGGGCCGGCCGGAAAGUAUUAUGUUACGCCGUUCGGAUCUGCACUUCCAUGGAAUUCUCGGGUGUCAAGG	-0.318
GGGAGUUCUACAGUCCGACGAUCAAGUCCUGUGCUACACAUCGUAUGUACCGAAUCGGUUUUUGGGUUUUUGGUUUUUGGAAAGUAUUAUGUUACGCCGUUCGGAUCUGCACUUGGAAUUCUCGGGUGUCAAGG	-1.32
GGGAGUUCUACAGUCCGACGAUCUCCUGUGCUACACAUCGUAUGUACCGAAUCGGGCCCCCCGGGCCCCCCGGGCCCCCCGGGAAAGUAUUAUGUUACGCCGUUCGGAUCUGCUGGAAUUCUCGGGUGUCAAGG	-0.244

Excerpt of the above (sample 2):
Sequence	fluorescence intensity [a.u.]
CTGCTTGGCGTATGGGGCGTGCAAATAACTGTTCATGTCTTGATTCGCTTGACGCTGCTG	122
AGTCGAGCCGCCCGTCACGTGCGGAGCCGCCCTGCTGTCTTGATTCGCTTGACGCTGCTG	2440
CTTCTGTAAATTTGTCACTACACTTGACGCGCCCCGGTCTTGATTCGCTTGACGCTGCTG	88.9
CTTCTGTAAATTTGCATTGTGGGTGGACGCGCCCCGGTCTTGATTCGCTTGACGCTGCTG	73.9
CTTCTGTAAATTTTTCACGTGGTCTGACGCGCCCCGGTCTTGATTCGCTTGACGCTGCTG	1230
CTAACGAAGGTTTGCTCCGTGGGTGACAAGCCAAGTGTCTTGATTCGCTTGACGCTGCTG	72.3
ATTGTTTACACCAATCGCGTGGGTAAAGGGGCTGGAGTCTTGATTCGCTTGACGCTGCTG	75.7
